Experimental data gathered from unrelated publications.
Compare with care: the assays were run in different laboratories. “And” joins repeats or separate records; there may be more than shown. Numbers after ± are the reported error.
B1: human adenosylhomocysteinase; sequence looked up; chain SDKLPYKVADIGLAAWGRKALDIAENEMPGLMRMRERYSASKPLKGARIAGCLHMTVETAVLIETLVTLGAEVQWSSCNIFSTQDHAAAAIAKAGIPVYAWKGETDEEYLWCIEQTLYFKDGPLNMILDDGGDLTNLIHTKYPQLLPGIRGISEETTTGVHNLYKMMANGILKVPAINVNDSVTKSKFDNLYGCRESLIDGIKRATDVMIAGKVAVVAGYGDVGKGCAQALRGFGARVIITEIDPINALQAAMEGYEVTTMDEACQEGNIFVTTTGCIDIILGRHFEQMKDDAIVCNIGHFDVEIDVKWLNENAVEKVNIKPQVDRYRLKNGRRIILLAEGRLVNLGCAMGHPSFVMSNSFTNQVMAQIELWTHPDKYPVGVHFLPKKLDEAVAEAHLGKLNVKLTKLTEKQAQYLGMSCDGPFKPDHYRY
B2: human ADP/ATP translocase 4; sequence looked up; chain MHREPAKKKAEKRLFDASSFGKDLLAGGVAAAVSKTAVAPIERVKLLLQVQASSKQISPEARYKGMVDCLVRIPREQGFFSFWRGNLANVIRYFPTQALNFAFKDKYKQLFMSGVNKEKQFWRWFLANLASGGAAGATSLCVVYPLDFARTRLGVDIGKGPEERQFKGLGDCIMKIAKSDGIAGLYQGFGVSVQGIIVYRASYFGAYDTVKGLLPKPKKTPFLVSFFIAQVVTTCSGILSYPFDTVRRRMMMQSGEAKRQYKGTLDCFVKIYQHEGISSFFRGAFSNVLRGTGGALVLVLYDKIKEFFHIDIGGR
B3: human TUBB; sequence looked up; chain MREIVHIQAGQCGNQIGAKFWEVISDEHGIDPTGTYHGDSDLQLDRISVYYNEATGGKYVPRAILVDLEPGTMDSVRSGPFGQIFRPDNFVFGQSGAGNNWAKGHYTEGAELVDSVLDVVRKEAESCDCLQGFQLTHSLGGGTGSGMGTLLISKIREEYPDRIMNTFSVVPSPKVSDTVVEPYNATLSVHQLVENTDETYCIDNEALYDICFRTLKLTTPTYGDLNHLVSATMSGVTTCLRFPGQLNADLRKLAVNMVPFPRLHFFMPGFAPLTSRGSQQYRALTVPELTQQVFDAKNMMAACDPRHGRYLTVAAVFRGRMSMKEVDEQMLNVQNKNSSYFVEWIPNNVKTAVCDIPPRGLKMAVTFIGNSTAIQELFKRISEQFTAMFRRKAFLHWYTGEGMDEMEFTEAESNMNDLVSEYQQYQDATAEEEEDFGEEAEEEA
Chain of UniProt P26368 (whole entry, looked up): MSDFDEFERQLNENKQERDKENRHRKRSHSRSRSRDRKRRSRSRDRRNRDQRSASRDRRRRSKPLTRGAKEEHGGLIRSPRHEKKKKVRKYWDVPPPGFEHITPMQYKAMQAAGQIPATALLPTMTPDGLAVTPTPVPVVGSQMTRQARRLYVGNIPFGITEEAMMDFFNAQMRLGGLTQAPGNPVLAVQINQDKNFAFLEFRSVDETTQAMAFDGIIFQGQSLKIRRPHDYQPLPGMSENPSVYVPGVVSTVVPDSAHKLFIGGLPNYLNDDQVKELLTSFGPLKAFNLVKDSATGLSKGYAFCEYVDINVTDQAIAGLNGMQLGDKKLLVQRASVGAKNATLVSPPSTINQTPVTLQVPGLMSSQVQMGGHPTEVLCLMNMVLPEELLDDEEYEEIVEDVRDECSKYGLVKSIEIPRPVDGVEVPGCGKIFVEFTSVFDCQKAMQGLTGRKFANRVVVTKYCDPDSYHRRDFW

Peginesatide  phosphorylation level (UT7/EPO; tyrosine phosphorylation, LC-MS/MS phosphoproteomics, GluC, measured: PLCG1 tyrosine 833; 10 nM, 15 min, added: 10 U/mL EPO; reference: vehicle): 6.8 fold
B1 (human adenosylhomocysteinase)  log2 fold change (PP6C (human); co-immunoprecipitation, IP-MS; CYB5R4 knockout cells; concentration not given; reference: CYB5R4 knockout over parental): 0.14
epoetin alfa  mRNA level (UT7/EPO; RT-qPCR, measured: EGR3; concentration not given, 90 min, normalized to HPRT1; reference: vehicle): 22.5 fold
human ME2 E59N  Hill coefficient (enzyme activity, NADH absorbance; without fumarate, added: L-malate varied): 1 ± 0.07
colistin  MIC (Acinetobacter baumannii; broth microdilution; clinical isolate RKI-No_3/15): ≤ 0.5 mg/L
milbemycin oxime  OD600 (Saccharomyces cerevisiae; cell growth; Pdr5 deleted, Cdr1 overexpressed; 2^-5.381 µg/mL): 0.971 and 0.97 and 1
PKRSFIESNV  binding intensity (construct, MBP fusion, human SCRIB, PDZ 3-4; automated holdup; peptide, crude extract; concentration not given, uncorrected, unit not given; reference: biotin control resin, higher = stronger binding): 0.732
Polymyxin B  log2 fold change (untargeted LC-MS metabolomics, measured: NADH; Sprague-Dawley rat, right cerebral cortex; intracerebroventricular, 0.75 mg/kg, 1 h; reference: NaCl control): -8.6
DNA-PKcs (human)  log2 fold change (CYB5R4 knockout human cells; PP6 interaction, 3xFLAG-PP6C IP-MS; concentration not given; reference: CYB5R4 KO over parental): 0.52
KPGKGSETVV  normalised SPR binding response (construct, MBP fusion, human SCRIB, PDZ 3-4; surface plasmon resonance; peptide; concentration not given; higher = stronger binding): 0 normalised RU
POTE ankyrin domain E (human)  log2 fold change (CYB5R4 knockout human cells; PP4 interaction, 3xFLAG-PP4C IP-MS; concentration not given; reference: CYB5R4 KO over parental): -0.39
AGGCUGAUAUUUCUUUGAG (ssRNA)  Kd (U2AF2 148-342 (Homo sapiens, UniProt P26368); MST; RNA): 4.44 ± 2.45 µM
human ME2 K74H  Hill coefficient (enzyme activity, NADH absorbance; without fumarate, added: L-malate varied): 1.71 ± 0.12
Nisin  nucleoid area (Bacillus subtilis; ATCC 6633; concentration not given): 0.77 µm² and 0.88 µm² and 0.75 µm²
B2 (human ADP/ATP translocase 4)  log2 fold change (PP6C (human); co-immunoprecipitation, IP-MS; CYB5R4 knockout cells; concentration not given; reference: CYB5R4 knockout over parental): -0.39
EKPIDSETKM  binding intensity (construct, MBP fusion, human SCRIB, PDZ 3-4; automated holdup; peptide, purified PDZ protein; concentration not given, unit not given; reference: biotin control resin, higher = stronger binding): 0.0855
B3 (human TUBB)  log2 fold change (PP6C (human); co-immunoprecipitation, IP-MS; CYB5R4 knockout cells; concentration not given; reference: CYB5R4 knockout over parental): -0.63
SEKHFRETEV  binding intensity (construct, MBP fusion, human SCRIB, PDZ 3-4; automated holdup; peptide, crude extract; concentration not given, corrected by standard peak, unit not given; reference: biotin control resin, higher = stronger binding): 0.816
MTVCNASQRQAHAQATAVSL  selectivity ratio (H2882; phage binding; peptide; reference: targeting over control phage): 0.4 ± 0.11
11-deoxycorticosterone  Kd (CYP11B2 (human); substrate binding, stopped-flow global kinetic fitting; purified enzyme; model, linear, 4 state, CS-IF, added: equimolar adrenodoxin): 3.53 µM
FGA (Homo sapiens, UniProt P02671)  cross-linked residues (AFDN (Homo sapiens, UniProt P55196); cross-linking MS; added: DSSO): K432 to K119
liraglutide  serum leptin (Wistar rat, female, diet-induced obese, blood, fasted; subcutaneous, dose not given, after 4 weeks treatment): 24.3 ± 2 ng/mL
PSMD3 (human)  log2 fold change (CYB5R4 knockout human cells; PP6 interaction, 3xFLAG-PP6C IP-MS; concentration not given; reference: CYB5R4 KO over parental): -1.57
cotadutide  metabolite level (metabolomics, measured: hepatic glutamate; ob/ob mice on AMLN diet, NASH model, liver; dose not given): 1.54 ± 0.06 scaled intensity

For quick reference, copied from above:
KPGKGSETVV  normalised SPR binding response (construct, MBP fusion, human SCRIB, PDZ 3-4; surface plasmon resonance; peptide; concentration not given; higher = stronger binding): 0 normalised RU
human ME2 E59N  Hill coefficient (enzyme activity, NADH absorbance; without fumarate, added: L-malate varied): 1 ± 0.07
human ME2 K74H  Hill coefficient (enzyme activity, NADH absorbance; without fumarate, added: L-malate varied): 1.71 ± 0.12
